Measured values from different studies.
Lines come from different studies, so protocols differ. Where no end group is shown, it is not given here. [ ]: non-standard residue; d: D form.

Molecule	target or system	assay	test system	conditions	how to read	endpoint	result
COc1ccc(-c2nc3ccccc3s2)cc1OCc1nnc(-c2c(OC)cccc2OC)o1		hind limb tonic extension	albino mouse, MES-induced seizure	ip, 0.5 h		minimal effective dose	100 mg/kg
insulin aspart		euglycaemic clamp	type 1 diabetes patients	subcutaneous, 0.2 U/kg single, 0-60 min, antibody quartile 4, 15.84-66.94 %B/T		AUC glucose infusion rate	123 mg/kg
V[dP]IA (D-Pro2)	PC-12	protection from Aβ1–42 toxicity, MTT		concentration not given, 6 h, Aβ to peptide ratio 1:10, together with: Aβ1–42 2 µM	baseline: untreated cells	cell viability	89.2%
COc1ccc(-c2nc3ccccc3s2)cc1OCc1nnc(-c2ccccc2)o1		seizure protection	albino mouse, scPTZ-induced seizure	ip, 4.0 h		minimal effective dose	100 mg/kg
CC[C@H]1OC(=O)[C@H](C)[C@@H](O[C@H]2C[C@@](C)(OC)[C@@H](O)[C@H](C)O2)[C@H](C)[C@@H](O[C@@H]2O[C@H](C)C[C@H](N(C)C)[C@H]2O)[C@](C)(O)C[C@@H](C)C(=O)[C@H](C)[C@@H](O)[C@]1(C)O	Haemophilus influenzae		hospitalized pneumonia patients, clinical isolates	Fine score 70 or more		susceptible isolates	0%
[dL]VIA (D-Leu1)	PC-12	protection from Aβ1–42 toxicity, MTT		concentration not given, 6 h, Aβ to peptide ratio 1:10, together with: Aβ1–42 2 µM	baseline: untreated cells	cell viability	70.6%
COc1ccc(-c2nc3ccccc3s2)cc1OCc1nnc(C(c2ccccc2)c2ccccc2)o1		hind limb tonic extension	albino mouse, MES-induced seizure	ip, 0.5 h		minimal effective dose	100 mg/kg
O=CN/C=C/c1cc(O)ccc1O	native rod CNG channel	ion current, inhibitor, patch clamp	Ambystoma tigrinum, rod outer segment patch, inside-out	100 µM, fully activated channels, together with: genistein 100 µM		genistein inhibition	decreased
CC1(C)S[C@@H]2[C@H](NC(=O)[C@H](N)c3ccc(O)cc3)C(=O)N2[C@H]1C(=O)O	other Haemophilus species		community-acquired pneumonia patients	Fine score below 70		sensitive strains	88.5%
VVI[dF] (D-Phe4)	PC-12	protection from Aβ1–42 toxicity, MTT		concentration not given, 6 h, Aβ to peptide ratio 1:5, together with: Aβ1–42 2 µM	baseline: untreated cells	cell viability	70%
Ac-DNCQYVYNV-NH2 (N-acetyl, C-amide)	mouse cathepsin G	inhibitor	peptide, wild type neutrophil lysate	2.5 mM, 30 min preincubation, pH 8.0, 37 °C, together with: N-Suc-AAPF-pNA 1 mM		inhibition	86%
[dI]VIA (D-Ile1)	PC-12	protection from Aβ1–42 toxicity, MTT		concentration not given, 6 h, Aβ to peptide ratio 1:5, together with: Aβ1–42 2 µM	baseline: untreated cells	cell viability	70%
COc1ccc(-c2nc3ccccc3s2)cc1OCc1nnc(-c2ccc(Cl)cc2)o1		seizure protection	albino mouse, scPTZ-induced seizure	ip, 0.5 h		minimal effective dose	100 mg/kg
CC[C@H]1OC(=O)[C@H](C)[C@@H](O[C@H]2C[C@@](C)(OC)[C@@H](O)[C@H](C)O2)[C@H](C)[C@@H](O[C@@H]2O[C@H](C)C[C@H](N(C)C)[C@H]2O)[C@](C)(O)C[C@@H](C)CN(C)[C@H](C)[C@@H](O)[C@]1(C)O	Haemophilus influenzae		hospitalized pneumonia patients, clinical isolates	Fine score 70 or more		susceptible isolates	100%
COc1ccc(-c2nc3ccccc3s2)cc1OCc1nnc(-c2cc([N+](=O)[O-])cc([N+](=O)[O-])c2O)o1		seizure protection	albino mouse, scPTZ-induced seizure	ip, 0.5 h		minimal effective dose	30 mg/kg
VV[Nle]A (Nle3; Nle = CCCC[C@H](N)C(=O)O)	PC-12	protection from Aβ1–42 toxicity, MTT		concentration not given, 6 h, Aβ to peptide ratio 1:10, together with: Aβ1–42 2 µM	baseline: untreated cells	cell viability	70%
